Results from different studies.
Compare with care: the assays were run in different laboratories. “And” joins repeats or separate records; there may be more than shown. In brackets after ≈: the same amount, converted by molar mass.

O=C(NC1CCC(CN2CCC(c3c[nH]c4ccccc34)CC2)CC1)c1[nH]c(=O)[nH]c(=O)c1F (centres unmarked) has an IC50 of over 20000 nM (Plasmodium yoelii; 17XL; 384-well).
The MIC90 of Cn1c(=O)ccc2ccc(F)c(CCNC[C@H]3CN(c4cnc5c(n4)NC(=O)CO5)C(=O)O3)c21 is reported as under 0.015 µg/mL (Mycoplasma spp.).
The MIC90 of O=[N+]([O-])c1cc2cc3ccc4oc([N+](=O)[O-])cc4c3cc2o1 is reported as over 32 µg/mL (Klebsiella aerogenes; REMA).
With N=C(N)c1ccc(OCc2ccc(Br)cc2COc2ccc(C(=N)N)cc2)cc1 the FICI was at most 0.047 (Escherichia coli; checkerboard; mcr-1 polymyxin-resistant; unit not given, added: rifampicin; lower = stronger synergy).
Under “lung viral RNA reduction”, CC(C)CC(=O)OC[C@H]1O[C@@](C#N)(c2ccc3c(N)ncnn23)[C@H](O)[C@@H]1O is recorded as 1.47 log10 (human respiratory syncytial virus; RT-PCR; A2, BALB/c mouse; oral, twice daily, dose not given, day 4 post-infection).
O=C(O)c1ccccc1O has an IC50 of 12000 nM (Tetrahymena pyriformis and Klebsiella pneumoniae; virulence in co-culture).
With CCCCCCCCCCCc1c([N+](=O)[O-])oc2ccc3ccccc3c12 the MIC90 was over 32 µg/mL (Klebsiella aerogenes; REMA).
With CN[C@H](CC(C)C)C(=O)N[C@H]1C(=O)N[C@@H](CC(N)=O)C(=O)N[C@H]2C(=O)N[C@H]3C(=O)N[C@H](C(=O)N[C@H](C(=O)O)c4cc(O)cc(O)c4-c4cc3ccc4O)[C@H](O)c3ccc(c(Cl)c3)Oc3cc2cc(c3O[C@@H]2O[C@H](CO)[C@@H](O)[C@H](O)[C@H]2O[C@H]2C[C@](C)(N)[C@H](O)[C@H](C)O2)Oc2ccc(cc2Cl)[C@H]1O the MIC50 was 0.25 µg/mL (≈ 0.173 µM) (Streptococcus pyogenes; erythromycin-resistant, 19 strains).
With O=[N+]([O-])c1cnc2ccccc2c1O the IC50 was 3450 nM (Tetrahymena pyriformis and Klebsiella pneumoniae; virulence in co-culture).
With [O-][N+]1=C(c2ccc(Cl)cc2)C2=NCCN2c2ccccc21 the MIC90 was 0.125 µg/mL (≈ 0.42 µM) (Parabacteroides distasonis and Bacteroides spp.; bacterial growth).
CCCCCCn1nnc2c1CCN(c1ccc(C(F)(F)F)cc1)C2 has an EC50 of over 100000 nM (human adenovirus 2; viral replication; HEL).
For Cc1cc(C)cc(NC(=O)CN(C)S(=O)(=O)c2ccc3[nH]c4c(c3c2)CCCC4)c1, the IC50 was 160 nM (Tetrahymena pyriformis and Klebsiella pneumoniae; virulence in co-culture).
For COC1=CC(c2ccc[nH]2)=N/C1=C\c1[nH]c(C)cc1-c1ccc(Cl)cc1.Cl, the parasitaemia reduction was 100% (Plasmodium yoelii; CF1 mice; oral, 25 mg/kg daily for 4 days, day 5; relative to: vehicle).
The MIC of CC(C)CC1NC(=O)C(C(=O)NC(C(=O)NC2C(=O)N3C2SC(C)(C)C3C(=O)O)c2ccccc2)=C1O (centres unmarked) is reported as 25 µg/mL (≈ 47.1 µM) (Escherichia coli; broth microdilution; Keio mutant JW0587-1; 18 h, enterobactin-related gene).
CCOC(=O)C1(Cc2ccccc2)CN(c2ccccc2)Cc2nnn(CCc3cc4ccccc4[nH]3)c21 (centres unmarked) has an EC50 of over 100000 nM (human adenovirus 2; viral replication; HEL).
The IC50 of COc1ccc(Br)c(/C=N/NC(=O)COc2ccc(-c3ccccc3)cc2)c1 is reported as 54.7 nM (Tetrahymena pyriformis and Klebsiella pneumoniae; virulence in co-culture).
For COc1cc2oc([N+](=O)[O-])cc2c2ccccc12, the MIC90 was 0.5 µg/mL (≈ 2.06 µM) (Mycolicibacterium aurum; REMA; ATCC 23366).
CS(=O)(=O)CCCn1c(Cn2c(=O)n(CC(F)(F)F)c3ccncc32)cc2cc(Cl)ccc21: “LS mean difference vs placebo” -1.5 log10 copies/mL (respiratory syncytial virus; RT-qPCR; hospitalized infants 1-24 months, nasal swab; oral, 2, 1.5 or 1 mg/kg daily, day 4, low dose by age cohort; relative to: placebo).
The parasitaemia reduction of CC1=C(C)/C(=C/c2cc(Cc3ccc(OC(F)(F)F)cc3)c(C)[nH]2)N=C1c1ccc[nH]1.Cl is reported as 100% (Plasmodium yoelii; CF1 mice; oral, 25 mg/kg daily for 4 days, day 5; relative to: vehicle).
Cc1c2c(nn1C)CSCc1cc(n(C)n1)CSc1cc(c3ccccc3c1)OCCCc1c(C(=O)O)n(C)c3c-2c(Cl)ccc13: “protein level fold change” 6.59 (Staphylococcus aureus; label-free proteomics, refers to: acyP; SA113; concentration not given; relative to: untreated).
Cc1ccc(Cn2c(N3CCC(C(=O)NCc4cccs4)CC3)nc3ccccc32)cc1 has an inhibition of 46% (Plasmodium yoelii; oxygen consumption; 17XL; 2 µM).
COC1=CC(c2ccc[nH]2)=N/C1=C\c1[nH]c(C)cc1-c1ccc(OC(F)(F)F)cc1.Cl gave a parasitaemia reduction of 100% (Plasmodium yoelii; CF1 mice; oral, 10 mg/kg daily for 4 days, day 5; relative to: vehicle).
O=[N+]([O-])c1cc2c(ccc3cc(Br)ccc32)o1 gave an MIC90 of over 32 µg/mL (Mycolicibacterium aurum; REMA; ATCC 23366).
With CC[C@H](C)[C@H](NC(=O)[C@H](CC(N)=O)NC(=O)[C@H](CCCCN)NC(=O)[C@H](CC(=O)O)NC(=O)[C@H](Cc1ccc(O)cc1)NC(=O)[C@H](Cc1ccc(O)cc1)NC(=O)[C@H](Cc1ccc(O)cc1)NC(=O)[C@H](CCCNC(=N)N)NC(=O)[C@H](CC(C)C)NC(=O)CNC(=O)[C@H](CCCNC(=N)N)NC(=O)[C@@H](N)CO)C(=O)N[C@H](C(=O)N[C@@H](Cc1c[nH]cn1)C(=O)N[C@@H](CCCCN)C(=O)N[C@H](C(=O)N[C@@H](C)C(=O)NCC(=O)N[C@@H](CCCCN)C(=O)N[C@@H](CCCNC(=N)N)C(=O)N[C@@H](Cc1ccc(O)cc1)C(=O)N[C@H](C(=O)N[C@@H](Cc1ccc(O)cc1)C(=O)N[C@@H](CCCNC(=N)N)C(=O)N[C@@H](Cc1ccccc1)C(=O)N[C@H](C(=O)O)C(C)C)C(C)C)[C@@H](C)O)[C@@H](C)CC the MBC was 64 µg/mL (≈ 19.6 µM) (Staphylococcus haemolyticus).
The MIC90 of COc1c([N+](=O)[O-])oc2ccc3ccccc3c12 is reported as over 32 µg/mL (Mycolicibacterium aurum; REMA; ATCC 23366).
Nc1ncnc2c1ncn2[C@@H]1O[C@@H]2COP(=O)(O)O[C@H]3[C@@H](O)[C@H](n4cnc5c(=O)[nH]cnc54)O[C@@H]3COP(=O)(O)O[C@H]2[C@H]1O has a fold enrichment of 10.5 (West Nile virus; RNA sequencing, refers to: interactions, syndecan, R-HSA-3000170; HFF-1 cells; concentration not given, downregulated pathway; relative to: WNV-infected untreated cells).
Under “eggs per female”, C[C@@H]1O[C@@H](O[C@H]2C[C@@H](O)[C@]3(CO)[C@H]4[C@H](O)C[C@]5(C)[C@@H](C6=CC(=O)OC6)CC[C@]5(O)[C@@H]4CC[C@]3(O)C2)[C@H](O)[C@H](O)[C@H]1O is recorded as 341 (Oncopeltus fasciatus; diet, concentration not given).
COc1cccc(C(=O)NN(C(=O)c2cc(C)cc(C)c2)C(C)(C)C)c1C: lifespan “no effect” (Anopheles gambiae s.l.; resistant; tarsal contact, dose not given, no blood meal, without RME; relative to: control).
The IC50 of CCOC(=O)/C(=N\NC(N)=S)c1cccs1 is reported as 1590 nM (Tetrahymena pyriformis and Klebsiella pneumoniae; virulence in co-culture).
CC1(C)SC2C(NC(=O)C(NC(=O)C3=C(O)C(Cc4ccc(F)cc4)NC3=O)c3ccccc3)C(=O)N2C1C(=O)O (centres unmarked) gave an MIC of 12.5 µg/mL (≈ 21.5 µM) (Escherichia coli; broth microdilution; Keio mutant JW0587-1; 18 h, enterobactin-related gene).
For C[C@@H](O)[C@H]1C(=O)N2C(C(=O)O)=C(S[C@@H]3CN[C@H](C(=O)N(C)C)C3)[C@H](C)[C@H]12, “lung bacterial load” read 2.31 log10 CFU/g (Acinetobacter baumannii; rat, lung; intravenous bolus, 15 mg/kg twice daily).
C/N=C(/NC)c1ccc(NC(=O)/C=C/c2ccc(/C=C/C(=O)Nc3ccc(/C(=N\C)NC)cc3)cc2)cc1 gave an IC50 of 90 nM (Tetrahymena pyriformis and Klebsiella pneumoniae; virulence in co-culture).
For CNC(C)C1CCC(N)C(OC2C(N)CC(N)C(OC3OCC(C)(O)C(NC)C3O)C2O)O1 (centres unmarked), the survival was 0% and 2.07% and 4.15% and 1.04% (Acinetobacter baumannii; 19606, biofilm; 25 µg/mL, without HNP1).
The IC90 of COc1cc(NC(=O)Cn2ccc3cc(F)c(-c4cnn(C)c4)cc32)cc(OC)c1OC is reported as 9.1 nM (Plasmodium falciparum; parasite growth; Dd2-B2 parent).
NC[C@H]1O[C@H](O[C@H]2[C@H](O)[C@@H](O[C@H]3O[C@H](CO)[C@@H](O)[C@H](N)[C@H]3O)[C@H](N)C[C@@H]2N)[C@H](O)[C@@H](O)[C@@H]1O gave a survival of 0.18% and 0.135% and 0.0449% and 0.0898% (Acinetobacter baumannii; colony counting; 19606, biofilm; 100 µg/mL, 12 h, without HNP1).
For COC(=O)N[C@H](C(=O)N1CCC[C@H]1c1ncc(-c2ccc(-c3ccc(-c4cnc([C@@H]5CCCN5C(=O)[C@@H](NC(=O)OC)C(C)C)[nH]4)cc3)cc2)[nH]1)C(C)C, the combination index was 1.06 (Hepatitis C virus; replicon cells; 50% effect level, added: NS5B palm site II inhibitor, ratio 1:1).
COC1=CC(c2ccc[nH]2)=N/C1=C\c1cc(Cc2ccc(C(F)(F)F)cc2)c(C)[nH]1.Cl has a parasitaemia reduction of 100% (Plasmodium yoelii; CF1 mice; oral, 25 mg/kg daily for 4 days, day 5; relative to: vehicle).
For CC[C@H](C)[C@H](NC(=O)[C@H](C)NC(=O)[C@H](CCCCN)NC(=O)[C@H](CC(C)C)NC(=O)[C@H](C)NC(=O)[C@@H](NC(=O)[C@H](Cc1c[nH]cn1)NC(=O)[C@H](CC(C)C)NC(=O)[C@@H](NC(=O)[C@@H](NC(=O)[C@H](CCCCN)NC(=O)[C@H](C)NC(=O)[C@H](C)NC(=O)[C@H](CO)NC(=O)[C@H](CCCCN)NC(=O)[C@H](Cc1ccccc1)NC(=O)[C@@H](NC(=O)[C@H](CCCCN)NC(=O)[C@H](CC(C)C)NC(=O)[C@H](Cc1ccccc1)NC(=O)[C@H](CO)NC(=O)[C@H](CCCCN)NC(=O)[C@H](Cc1c[nH]c2ccccc12)NC(=O)[C@H](CCCCN)NC(C)=O)[C@@H](C)O)[C@@H](C)O)C(C)C)[C@@H](C)O)C(=O)N[C@@H](CO)C(=O)N[C@@H](CO)C(N)=O, “MIC geometric mean” read 8 µg/mL (≈ 2.73 µM) (Streptococcus pyogenes; ATCC 19615; 1 strain).
